Measurements gathered from unrelated publications.
“And” joins repeats or separate records; there may be more than shown. Numbers after ± are the reported error.

SMILES	test system	conditions	scale	tissue uptake
CN(C)c1ccc(C(=O)NCCCCN2CCN(c3ccccc3O[11CH3])CC2)cc1	male Sprague Dawley rat, muscle	iv, 30 min	baseline: untreated	0.071 %ID/g
CCN(CC)c1ccc2c(-c3ccccc3C(=O)OCCOCC[18F])c3ccc(=[N+](CC)CC)cc-3oc2c1	rat, heart	60 min	–	2.51 ± 0.16 %ID/g
COc1cc2ccnc(Cc3ccc(O[11CH3])c(OC)c3)c2cc1OC	Sprague-Dawley rats, testes	intravenous, 0.5 h	–	0.094 ± 0.017 %ID/g
O=C(O)CCCN1CCN2CCN(CC1)CC(=O)[O][Al]([18F])[O]C(=O)C2	Sprague-Dawley rat, renal pedicle ligation, liver	60 min	–	4 ± 0.2 %ID
CCNc1cc2[o+]c3cc(NCC)c(C)cc3c(-c3ccccc3C(=O)OCCOCC[18F])c2cc1C	rat, liver	30 min	–	0.15 %ID/g and 0.14 %ID/g
O=C(c1ccc(F)cc1)C1CCN(C2Cc3c(cccc3OCC[18F])CC2O)CC1 (single isomer, unassigned; (-))	Sprague-Dawley rat, male, lung	intravenous, dose not given, 30 min	–	0.973 ± 0.107 %ID/g
COc1ccc(NC(=O)Cn2c(=O)c3ccccc3n(CC(=O)Nc3cc([125I])c(OC)cc3OC)c2=O)cc1	Wistar rat (normal), thymus	intravenous, 0.5 h	–	0.1 ± 0.02 %ID/g
CCN(CC)c1ccc2c(-c3ccccc3C(=O)OCCC[18F])c3ccc(=[N+](CC)CC)cc-3oc2c1	rat, blood	60 min	–	0.05 ± 0.01 %ID/g

Some of these lines once more:
SMILES	test system	conditions	scale	tissue uptake
CN(C)c1ccc(C(=O)NCCCCN2CCN(c3ccccc3O[11CH3])CC2)cc1	male Sprague Dawley rat, muscle	iv, 30 min	baseline: untreated	0.071 %ID/g
